Experimental data pooled from the literature.
Lines come from different studies, so protocols differ. Several values in a cell are separate wells, animals, samples, runs or records. ± marks the error that the study gave.

| Compound | assay | test system | setting | how to read | measurement | result |
| --- | --- | --- | --- | --- | --- | --- |
| CC1Cc2ccccc2N1C(=O)CN1CCN(Cc2ccccc2)CC1 (stereo not drawn) | zero maze | D4R-KO mice | dose not given | baseline: vehicle | time in open area | no effect |
| Cc1cccc(NC(=O)CCN2CCN(C/C=C/c3ccccc3)CC2)c1 | locomotor activity in dark | Danio rerio larvae, 7 dpf, well of 10 larvae | 10 µM, minute 3, dark | – | third-quartile larval motion | 1.5 ± 0.4 pixels/frame |
| CCOC(=O)NN | hydrazine ligation kinetics, absorbance | – | concentration not given, 35 s, added: 2-formylphenylboronic acid | – | normalised absorbance | 0.816 |
| Cc1ccc(C)c(OCC(O)CN2CCN(c3cc(Cl)ccc3C)CC2)c1 (stereo not drawn) | locomotor activity in dark | Danio rerio larvae, 7 dpf, well of 10 larvae | 10 µM, minute 3, dark | – | third-quartile larval motion | 0 pixels/frame |
| CCCCCCCCCCCCCCCC(=O)OCC(CSC[C@H](N)C(=O)N[C@@H](CO)C(=O)N[C@@H](CCCCN)C(=O)N[C@@H](CCCCN)C(=O)N[C@@H](CCCCN)C(=O)N[C@@H](CCCCN)C(=O)NCCCCCC(=O)N[C@@H](CCCCN)C(=O)N[C@@H](CC(C)C)C(=O)N[C@H](C(=O)N[C@@H](Cc1ccccc1)C(=O)N[C@@H](Cc1ccccc1)C(=O)N[C@@H](Cc1ccc2ccccc2c1)C(=O)O)C(C)C)OC(=O)CCCCCCCCCCCCCCC (stereo partly drawn) | OC antibody staining | APP/PS1 transgenic mouse, cortex | intracortical injection, dose not given, 5 d | baseline: injected over adjacent area | Aβ plaque area ratio | 0.428 and 0.71 and 0.444 and 0.74 and 0.584 and 0.439 and 0.56 |
| COc1ccc(CCc2cc(OC)c(O)c(OC)c2)cc1OC | Oil Red O | 3T3-L1, mouse | 5 µM, day 8 | – | lipid content | decreased |
| COC1CN([C@H]2CC[C@H]([C@@]3(C)Oc4c(Cl)cc(C(=O)NCc5c(SC)cc(C)[nH]c5=O)c(C)c4O3)CC2)C1 | RNA-seq, refers to: GPCPD1 | human, whole blood | dose not given, 24 h | baseline: pretreatment baseline | log2 fold change | 1.3 |
| CC[C@H](C)[C@@H](C(=O)N[C@@H](CC(C)C)C(=O)N[C@@H](CO)C(=O)N[C@@H](CO)C(=O)N[C@H](C(=O)N[C@@H](CCC(=O)O)C(=O)N[C@H](C(=O)NCC(=O)N[C@@H](CO)C(=O)N[C@@H](CO)C(=O)N[C@H](C(=O)N1C[C@H](O)C[C@H]1C(N)=O)[C@@H](C)O)C(C)C)[C@@H](C)O)N(C)C(=O)[C@H](C)NC(=O)CN(C)C(=O)[C@H](Cc1ccccc1)NC(=O)[C@H](CO)NC(=O)[C@H](CO)NC(=O)[C@H](CCCNC(=N)N)NC(=O)[C@@H](NC(=O)[C@H](CC(C)C)NC(=O)[C@H](Cc1ccccc1)NC(=O)[C@H](Cc1c[nH]cn1)NC(=O)[C@H](C)NC(=O)[C@H](CC(C)C)NC(=O)[C@H](CCCNC(=N)N)NC(=O)[C@H](CCC(=O)O)NC(=O)[C@@H](NC(=O)[C@H](C)NC(=O)[C@@H]1CSSC[C@H](NC(=O)[C@H](CCCNC(=N)N)NC(=O)CC[C@H](NC(=O)CCCCCCCCCCCCCCCCCCC(=O)O)C(=O)O)C(=O)NCC(=O)N[C@@H]([C@@H](C)O)C(=O)N[C@@H](C)C(=O)N[C@@H]([C@@H](C)O)C(=O)N1)[C@@H](C)O)[C@@H](C)O | – | male Sprague-Dawley rats | subcutaneous, 30 nmol/kg single dose, 96 h | – | body weight loss | 7 ± 0.5% |
| COc1cc(C2NCCc3cc(O)c(O)cc32)cc(OC)c1OC (stereo not drawn) | DPPH scavenging, absorbance | – | 30 min, dark | – | IC50 | 29.3 µM |
| COc1ccc(C(=O)CCc2cc(C(CCc3ccc(O)cc3OC)c3ccc(O)cc3)c(O)cc2OC)cc1 (racemic) | refers to: 12-HEPE | human whole blood | 3 µM, added: A23187 | – | amount | 280 ± 79 pg/mL blood |
| O=C(NC[C@@H]1O[C@H]2CC/C=C/CC[C@H]2O1)c1ccc(COCCOCCOCCF)cc1 | IEDDA cycloaddition, substrate, stopped-flow spectrophotometry | water/methanol 45:55 | 0.5 mM, 298 K, added: methyltetrazine-NHS 0.05 mM | – | observed rate constant kobs | 0.49 ± 0.00133 s⁻¹ |
| Cc1cccc(C)c1CNc1cc(C(=O)N2CCC2)cn2c(C)c(C)nc12 | gastric acid secretion | dog Heidenhain pouch | oral, 3 mg/kg, 24 h after dosing, added: histamine | – | inhibition | 74.3% |
| CCC(=O)N[C@@H](C)C(=O)OCC(=O)N[C@@H](C)C(=O)O | – | water | pH 7, 25 °C | – | chain scission rate constant | 0.0078 h⁻¹ |
| COCCNCCOc1cc(C)cc(C(C)C)c1 | locomotor activity in dark | Danio rerio larvae, 7 dpf, well of 10 larvae | 10 µM, minute 3, dark | – | third-quartile larval motion | 6.7 ± 0.7 pixels/frame |
| COc1ccccc1-c1ccncc1C(=O)Nc1nnc(OCc2ccc(Cl)cc2)s1 | – | Brca1 Δ11/Δ11 Polq-/- MEFs, mouse | 1.25 µM | – | colony survival | 91.9% and 94.1% and 85% and 86% and 100% and 98.3% |
| CC(C)(C)NCC(SS(=O)(=O)O)c1ccccc1 (stereo not drawn) | – | Swiss Webster mice, Schistosoma mansoni-infected | 200 mg/kg single dose on day 42 post-infection, perfusion day 56 post-infection | – | spleen weight | 0.68 g |
| CC(=O)[O-].O.O.O.O.[Mn+2].[O-]c1ccc(Br)cc1C=NCCN1CCOCC1 | nitric oxide scavenging | – | 80 µM | – | inhibition | 16.6% |

| Compound | assay | test system | setting | how to read | measurement | result |
| --- | --- | --- | --- | --- | --- | --- |
| NC(=O)Cc1ccc(O)c(Cc2ccc(O)cc2)c1 | ABTS radical | – | 300 µg/mL | – | radical scavenging | 88.94 ± 0.72% |
| CC[C@H](C)[C@@H](C(=O)N[C@@H](CC(C)C)C(=O)N[C@@H](CO)C(=O)N[C@@H](CO)C(=O)N[C@H](C(=O)N[C@@H](CCC(=O)O)C(=O)N[C@H](C(=O)NCC(=O)N[C@@H](CO)C(=O)N[C@@H](CC(N)=O)C(=O)N[C@H](C(=O)N1C[C@H](O)C[C@H]1C(N)=O)[C@@H](C)O)C(C)C)[C@@H](C)O)N(C)C(=O)[C@H](C)NC(=O)CN(C)C(=O)[C@H](Cc1ccccc1)NC(=O)[C@H](CO)NC(=O)[C@H](CO)NC(=O)[C@H](CCCNC(=N)N)NC(=O)[C@H](CCC(N)=O)NC(=O)[C@H](CC(C)C)NC(=O)[C@H](Cc1ccccc1)NC(=O)[C@H](CCCC(=O)O)NC(=O)[C@H](C)NC(=O)[C@H](CC(C)C)NC(=O)[C@H](CCCNC(=N)N)NC(=O)[C@H](CCC(=O)O)NC(=O)[C@@H](NC(=O)[C@H](C)NC(=O)[C@@H]1CCCCNC(=O)C[C@H](NC(=O)[C@H](CCCNC(=N)N)NC(=O)CC[C@H](NC(=O)CCCCCCCCCCCCCCCCCCC(=O)O)C(=O)O)C(=O)NCC(=O)N[C@@H]([C@@H](C)O)C(=O)N[C@@H](C)C(=O)N[C@@H]([C@@H](C)O)C(=O)N1)[C@@H](C)O | – | diet-induced obese rats | subcutaneous, 3 nmol/kg every other day, day 4 | baseline: day 0 | body weight change | 0.2% |
| Cc1ccc(NC(=O)CCN2CCCCCC2)cc1C | locomotor activity in dark | Danio rerio larvae, 7 dpf, well of 10 larvae | 10 µM, minute 5, dark | – | third-quartile larval motion | 0.7 ± 0.7 pixels/frame |
| COc1ccc(NC(=O)c2ccc3[nH]c(-c4ccc(N(C)C)cc4)nc3c2)cn1 | – | CT26, BALB/c nude mice, subcutaneous graft | dose not given, day 4 | – | tumour volume | 125 mm3 and 381 mm3 and 273 mm3 and 242 mm3 and 275 mm3 |
| CC(CCC(=O)NCc1ccc(C(=O)NO)cc1)C1CCC2C3C(O)CC4CC(O)CCC4(C)C3CCC12C (stereo not drawn) | refers to: TCA | PCK rat (Pkhd1 mutant), peripheral blood | oral gavage, dose not given, 5 months | baseline: total bile acids | relative abundance | 24.5% |
| N#Cc1ccc(-c2cnc(C(=O)CCCCCCc3ccccc3)o2)nc1 | refers to: AEA, OEA, PEA | mouse, brain and liver | i.p., 30 mg/kg, 1 and 3 h | – | lipid amide levels | increased |
| Cc1cc(NC(=O)CCN2CCCCC2)ccc1Br | locomotor activity in dark | Danio rerio larvae, 7 dpf, well of 10 larvae | 10 µM, minute 3, dark | – | third-quartile larval motion | 2.3 ± 0.6 pixels/frame |
| Nc1nc2cc(CC[C@H]3C[C@@H](n4ccc5c(N)ncnc54)[C@H](O)[C@@H]3O)ccc2cc1Br | – | mouse, NCI-H1048 xenograft | oral, 10 mg/kg, day 28, intermittent, qd x 28 | – | tumour growth inhibition | 77.1% |
| CN1CCC[C@]1(C)/C=C/S(=O)(=O)NC(=O)Nc1c2c(cc3c1CCC3)CCC2 | – | human, whole blood ex vivo | 100 mg single dose, 6 h, single ascending dose, added: LPS and ATP | – | IL-1β inhibition | 99.7% |
| Cc1cc(C)cc(NC(=O)CCN2CCCCCC2)c1 | locomotor activity in dark | Danio rerio larvae, 7 dpf, well of 10 larvae | 10 µM, minute 3, dark | – | third-quartile larval motion | 8.5 ± 2.3 pixels/frame |
| CCOCc1ccc(O[C@@H]2O[C@@H](C)[C@H](O)[C@@H](O)[C@H]2O)cc1 | ABTS radical | – | 300 µg/mL | – | radical scavenging | 11.5 ± 0.4% |
| O=C(NCC1OC2CCC=CCCC2O1)c1ccc(F)nc1 (stereo not drawn) | IEDDA cycloaddition, substrate, stopped-flow spectrophotometry | water/methanol 45:55 | 1.5 mM, 298 K, added: 3,6-di(2-pyridyl)-tetrazine 0.05 mM | – | observed rate constant kobs | 494 ± 19.4 s⁻¹ |
| NNC(=O)Cc1ccccc1 | hydrazine ligation kinetics, absorbance | – | concentration not given, 35 s, added: 2-formylphenylboronic acid | – | normalised absorbance | 0.692 |
| CC(C)C[C@H](NC(=O)CNC(=O)[C@H](CCC(N)=O)NC(=O)[C@H](CC(C)C)NC(=O)[C@H](CC(C)C)NC(=O)[C@H](CCCNC(=N)N)NC(=O)[C@H](CCC(N)=O)NC(=O)[C@H](CC(C)C)NC(=O)[C@H](CCCNC(=N)N)NC(=O)[C@H](C)NC(=O)CNC(=O)[C@H](CCC(=O)O)NC(=O)[C@H](CCCNC(=N)N)NC(=O)[C@H](CC(C)C)NC(=O)[C@H](CCCNC(=N)N)NC(=O)[C@H](CO)NC(=O)[C@H](CC(C)C)NC(=O)[C@H](CCC(=O)O)NC(=O)[C@H](CO)NC(=O)[C@@H](NC(=O)[C@H](Cc1ccccc1)NC(=O)[C@@H](NC(=O)CNC(=O)[C@H](CC(=O)O)NC(=O)C(C)(C)NC(=O)[C@@H](N)Cc1c[nH]cn1)[C@@H](C)O)[C@@H](C)O)C(=O)N[C@@H](CC(C)C)C(=O)N[C@@H](CCC(N)=O)C(=O)NCC(=O)N[C@@H](CC(C)C)C(=O)N[C@H](C(=O)NCC(=O)N[C@@H](CCCCNC(=O)COCCOCCNC(=O)COCCOCCNC(=O)CC[C@H](NC(=O)CCCCCCCCCCCCCCCCC(=O)O)C(=O)O)C(N)=O)C(C)C | – | DIO C57BL/6J mice | sc, 300 nmol/kg twice daily, 8 days, dark and light phase | – | locomotor activity | no effect |
| Cc1ccc(S(=O)(=O)NN)cc1 | hydrazine ligation kinetics, absorbance | – | concentration not given, 15 s, added: 2-formylphenylboronic acid | – | normalised absorbance | 0.71 |
| O=C([O-])c1cccc(CN2Cc3cccc(n3)CN(Cc3cccc(C(=O)O)n3)Cc3cccc(n3)C2)n1.[Mn+2].[O-][Cl+3]([O-])([O-])[O-] | HPLC | water | 25 °C, Mn complex dissociation, added: 25 equiv Zn2+ | – | transmetallation rate constant | 0.0001 s⁻¹ |

Some of these lines once more:
| Compound | assay | test system | setting | how to read | measurement | result |
| --- | --- | --- | --- | --- | --- | --- |
| CC(CCC(=O)NCc1ccc(C(=O)NO)cc1)C1CCC2C3C(O)CC4CC(O)CCC4(C)C3CCC12C (stereo not drawn) | refers to: TCA | PCK rat (Pkhd1 mutant), peripheral blood | oral gavage, dose not given, 5 months | baseline: total bile acids | relative abundance | 24.5% |
| N#Cc1ccc(-c2cnc(C(=O)CCCCCCc3ccccc3)o2)nc1 | refers to: AEA, OEA, PEA | mouse, brain and liver | i.p., 30 mg/kg, 1 and 3 h | – | lipid amide levels | increased |
| Cc1cc(NC(=O)CCN2CCCCC2)ccc1Br | locomotor activity in dark | Danio rerio larvae, 7 dpf, well of 10 larvae | 10 µM, minute 3, dark | – | third-quartile larval motion | 2.3 ± 0.6 pixels/frame |
| Nc1nc2cc(CC[C@H]3C[C@@H](n4ccc5c(N)ncnc54)[C@H](O)[C@@H]3O)ccc2cc1Br | – | mouse, NCI-H1048 xenograft | oral, 10 mg/kg, day 28, intermittent, qd x 28 | – | tumour growth inhibition | 77.1% |
